# Published values collected from several papers.
# Every numbered part comes from another study and shows a few of its results, in no order.
# Sequence of UniProt P41743 (whole entry, looked up): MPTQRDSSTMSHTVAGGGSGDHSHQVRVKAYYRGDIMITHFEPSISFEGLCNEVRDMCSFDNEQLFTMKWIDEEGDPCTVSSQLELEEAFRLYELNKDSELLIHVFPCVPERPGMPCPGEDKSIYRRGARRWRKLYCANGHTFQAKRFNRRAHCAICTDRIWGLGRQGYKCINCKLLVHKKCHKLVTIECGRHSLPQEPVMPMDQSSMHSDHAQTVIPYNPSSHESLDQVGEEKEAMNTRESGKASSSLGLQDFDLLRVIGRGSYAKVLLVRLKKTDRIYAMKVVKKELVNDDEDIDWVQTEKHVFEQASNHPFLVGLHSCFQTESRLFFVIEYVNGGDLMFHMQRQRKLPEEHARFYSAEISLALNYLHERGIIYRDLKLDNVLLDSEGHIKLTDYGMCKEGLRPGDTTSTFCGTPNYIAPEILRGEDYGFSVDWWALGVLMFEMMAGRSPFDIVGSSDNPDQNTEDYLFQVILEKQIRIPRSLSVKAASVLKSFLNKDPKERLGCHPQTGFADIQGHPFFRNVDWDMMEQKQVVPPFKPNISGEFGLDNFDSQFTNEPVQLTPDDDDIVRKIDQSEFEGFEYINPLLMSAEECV
# Sequence of UniProt Q15208 (whole entry, looked up): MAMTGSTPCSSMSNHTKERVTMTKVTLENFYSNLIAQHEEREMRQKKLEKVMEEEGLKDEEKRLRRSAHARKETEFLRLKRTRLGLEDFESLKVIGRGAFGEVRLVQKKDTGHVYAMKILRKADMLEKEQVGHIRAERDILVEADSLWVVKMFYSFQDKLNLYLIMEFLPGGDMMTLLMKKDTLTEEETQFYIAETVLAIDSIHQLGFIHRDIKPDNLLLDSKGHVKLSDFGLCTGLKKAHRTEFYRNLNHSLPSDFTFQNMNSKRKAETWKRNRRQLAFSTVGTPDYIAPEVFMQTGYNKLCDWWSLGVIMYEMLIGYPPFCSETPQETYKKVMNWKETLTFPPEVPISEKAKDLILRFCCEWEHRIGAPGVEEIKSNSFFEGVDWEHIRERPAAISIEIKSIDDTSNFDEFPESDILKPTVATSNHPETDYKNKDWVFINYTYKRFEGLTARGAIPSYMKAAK
# Sequence of UniProt Q06187 (whole entry, looked up): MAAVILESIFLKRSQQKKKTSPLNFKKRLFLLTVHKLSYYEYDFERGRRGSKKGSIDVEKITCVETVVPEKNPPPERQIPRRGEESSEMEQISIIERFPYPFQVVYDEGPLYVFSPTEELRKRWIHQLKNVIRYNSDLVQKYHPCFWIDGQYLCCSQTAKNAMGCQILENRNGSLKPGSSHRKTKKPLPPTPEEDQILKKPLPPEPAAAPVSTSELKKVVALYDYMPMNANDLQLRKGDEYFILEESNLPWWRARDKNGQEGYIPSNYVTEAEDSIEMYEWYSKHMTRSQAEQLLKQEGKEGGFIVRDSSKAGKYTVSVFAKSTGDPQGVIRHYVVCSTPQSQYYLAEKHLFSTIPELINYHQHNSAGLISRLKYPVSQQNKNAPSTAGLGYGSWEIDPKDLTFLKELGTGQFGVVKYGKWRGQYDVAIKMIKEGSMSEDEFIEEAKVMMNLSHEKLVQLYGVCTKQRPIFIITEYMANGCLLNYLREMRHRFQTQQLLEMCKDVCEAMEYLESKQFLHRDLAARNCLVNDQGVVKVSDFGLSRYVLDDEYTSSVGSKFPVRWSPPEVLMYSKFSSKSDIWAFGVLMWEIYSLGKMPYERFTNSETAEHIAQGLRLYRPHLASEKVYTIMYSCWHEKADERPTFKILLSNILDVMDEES
# Sequence of UniProt O15264 (whole entry, looked up): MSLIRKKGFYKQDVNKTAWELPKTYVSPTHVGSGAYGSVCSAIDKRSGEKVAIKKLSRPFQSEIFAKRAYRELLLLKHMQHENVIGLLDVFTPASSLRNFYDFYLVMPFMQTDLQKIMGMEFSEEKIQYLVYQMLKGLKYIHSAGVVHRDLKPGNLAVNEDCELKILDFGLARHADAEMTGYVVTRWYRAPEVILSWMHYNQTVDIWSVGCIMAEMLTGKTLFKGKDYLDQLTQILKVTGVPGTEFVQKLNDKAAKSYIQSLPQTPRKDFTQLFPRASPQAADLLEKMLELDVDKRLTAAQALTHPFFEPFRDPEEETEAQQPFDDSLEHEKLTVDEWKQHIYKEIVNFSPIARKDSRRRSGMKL
# Sequence of UniProt P48729 (whole entry, looked up): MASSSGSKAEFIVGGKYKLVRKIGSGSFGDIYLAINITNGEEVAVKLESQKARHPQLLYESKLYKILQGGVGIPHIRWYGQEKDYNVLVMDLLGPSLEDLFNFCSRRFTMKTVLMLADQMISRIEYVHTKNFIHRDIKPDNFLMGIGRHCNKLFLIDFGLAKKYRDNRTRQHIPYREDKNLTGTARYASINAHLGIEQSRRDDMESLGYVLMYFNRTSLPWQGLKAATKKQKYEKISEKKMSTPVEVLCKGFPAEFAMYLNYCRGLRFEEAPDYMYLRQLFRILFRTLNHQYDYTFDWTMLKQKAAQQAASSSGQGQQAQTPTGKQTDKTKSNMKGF

# Series 1
# SMILES: CCC(=N\O)/C(C)=C/c1ccc(F)cc1
# Concentration: 1 µM
target,assay,remaining binding
"5'-AMP-activated protein kinase catalytic subunit alpha-1 (PRKAA1, Homo sapiens, UniProt Q13131)","cell-free assay, competition with immobilised ligand",99%
"Phosphatidylinositol 5-phosphate 4-kinase type-2 gamma (PIP4K2C, Homo sapiens, UniProt Q8TBX8)","cell-free assay, competition with immobilised ligand",83%
"TGF-beta receptor type-1 (TGFBR1, Homo sapiens, UniProt P36897)","cell-free assay, competition with immobilised ligand",85%
"Serine/threonine-protein kinase ULK2 (ULK2, Homo sapiens, UniProt Q8IYT8)","cell-free assay, competition with immobilised ligand",46%
"Eukaryotic translation initiation factor 2-alpha kinase 1 (EIF2AK1, Homo sapiens, UniProt Q9BQI3)","cell-free assay, competition with immobilised ligand",100%
"Serine/threonine-protein kinase MAK (MAK, Homo sapiens, UniProt P20794)","cell-free assay, competition with immobilised ligand",100%
"Serine/threonine-protein kinase MARK1 (MARK1, Homo sapiens, UniProt Q9P0L2)","cell-free assay, competition with immobilised ligand",100%
"Mitogen-activated protein kinase kinase kinase 20 (MAP3K20, Homo sapiens, UniProt Q9NYL2)","cell-free assay, competition with immobilised ligand",84%
"Tyrosine-protein kinase ABL1, phosphorylated (ABL1, Homo sapiens, UniProt P00519, E255K)","cell-free assay, competition with immobilised ligand",52%
"Dual specificity tyrosine-phosphorylation-regulated kinase 2 (DYRK2, Homo sapiens, UniProt Q92630)","cell-free assay, competition with immobilised ligand",94%
"Serine/threonine-protein kinase 32B (STK32B, Homo sapiens, UniProt Q9NY57)","cell-free assay, competition with immobilised ligand",100%
"ALK tyrosine kinase receptor (ALK, Homo sapiens, UniProt Q9UM73, L1196M)","cell-free assay, competition with immobilised ligand",71%
"Serine/threonine-protein kinase tousled-like 2 (TLK2, Homo sapiens, UniProt Q86UE8)","cell-free assay, competition with immobilised ligand",100%
"Serine/threonine-protein kinase WNK1 (WNK1, Homo sapiens, UniProt Q9H4A3)","cell-free assay, competition with immobilised ligand",83%
"Calcium/calmodulin-dependent protein kinase type 1D (CAMK1D, Homo sapiens, UniProt Q8IU85)","cell-free assay, competition with immobilised ligand",100%
"Tyrosine-protein kinase ZAP-70 (ZAP70, Homo sapiens, UniProt P43403)","cell-free assay, competition with immobilised ligand",96%
"Dual specificity testis-specific protein kinase 1 (TESK1, Homo sapiens, UniProt Q15569)","cell-free assay, competition with immobilised ligand",82%
"Serine/threonine-protein kinase MRCK gamma (CDC42BPG, Homo sapiens, UniProt Q6DT37)",competition binding,73%
"Receptor-type tyrosine-protein kinase FLT3 (FLT3, Homo sapiens, UniProt P36888, F691L/ITD)","cell-free assay, competition with immobilised ligand",67%
"Ribosomal protein S6 kinase alpha-6, N-terminal kinase domain (RPS6KA6, Homo sapiens, UniProt Q9UK32)","cell-free assay, competition with immobilised ligand",81%
"Protein kinase C iota type (PRKCI, Homo sapiens, UniProt P41743)","cell-free assay, competition with immobilised ligand",74%
"Phosphatidylinositol 4-phosphate 5-kinase type-1 gamma (PIP5K1C, Homo sapiens, UniProt O60331)","cell-free assay, competition with immobilised ligand",100%
"Serine/threonine-protein kinase PLK4 (PLK4, Homo sapiens, UniProt O00444)","cell-free assay, competition with immobilised ligand",75%
"Activin receptor type-1-like (ACVRL1, Homo sapiens, UniProt P37023)","cell-free assay, competition with immobilised ligand",76%
"Ephrin type-A receptor 4 (EPHA4, Homo sapiens, UniProt P54764)","cell-free assay, competition with immobilised ligand",74%

# Series 2
# Target: DNA polymerase theta, helicase domain (POLQ, Homo sapiens, UniProt O75417)
# Sequence of UniProt O75417 (whole entry, looked up): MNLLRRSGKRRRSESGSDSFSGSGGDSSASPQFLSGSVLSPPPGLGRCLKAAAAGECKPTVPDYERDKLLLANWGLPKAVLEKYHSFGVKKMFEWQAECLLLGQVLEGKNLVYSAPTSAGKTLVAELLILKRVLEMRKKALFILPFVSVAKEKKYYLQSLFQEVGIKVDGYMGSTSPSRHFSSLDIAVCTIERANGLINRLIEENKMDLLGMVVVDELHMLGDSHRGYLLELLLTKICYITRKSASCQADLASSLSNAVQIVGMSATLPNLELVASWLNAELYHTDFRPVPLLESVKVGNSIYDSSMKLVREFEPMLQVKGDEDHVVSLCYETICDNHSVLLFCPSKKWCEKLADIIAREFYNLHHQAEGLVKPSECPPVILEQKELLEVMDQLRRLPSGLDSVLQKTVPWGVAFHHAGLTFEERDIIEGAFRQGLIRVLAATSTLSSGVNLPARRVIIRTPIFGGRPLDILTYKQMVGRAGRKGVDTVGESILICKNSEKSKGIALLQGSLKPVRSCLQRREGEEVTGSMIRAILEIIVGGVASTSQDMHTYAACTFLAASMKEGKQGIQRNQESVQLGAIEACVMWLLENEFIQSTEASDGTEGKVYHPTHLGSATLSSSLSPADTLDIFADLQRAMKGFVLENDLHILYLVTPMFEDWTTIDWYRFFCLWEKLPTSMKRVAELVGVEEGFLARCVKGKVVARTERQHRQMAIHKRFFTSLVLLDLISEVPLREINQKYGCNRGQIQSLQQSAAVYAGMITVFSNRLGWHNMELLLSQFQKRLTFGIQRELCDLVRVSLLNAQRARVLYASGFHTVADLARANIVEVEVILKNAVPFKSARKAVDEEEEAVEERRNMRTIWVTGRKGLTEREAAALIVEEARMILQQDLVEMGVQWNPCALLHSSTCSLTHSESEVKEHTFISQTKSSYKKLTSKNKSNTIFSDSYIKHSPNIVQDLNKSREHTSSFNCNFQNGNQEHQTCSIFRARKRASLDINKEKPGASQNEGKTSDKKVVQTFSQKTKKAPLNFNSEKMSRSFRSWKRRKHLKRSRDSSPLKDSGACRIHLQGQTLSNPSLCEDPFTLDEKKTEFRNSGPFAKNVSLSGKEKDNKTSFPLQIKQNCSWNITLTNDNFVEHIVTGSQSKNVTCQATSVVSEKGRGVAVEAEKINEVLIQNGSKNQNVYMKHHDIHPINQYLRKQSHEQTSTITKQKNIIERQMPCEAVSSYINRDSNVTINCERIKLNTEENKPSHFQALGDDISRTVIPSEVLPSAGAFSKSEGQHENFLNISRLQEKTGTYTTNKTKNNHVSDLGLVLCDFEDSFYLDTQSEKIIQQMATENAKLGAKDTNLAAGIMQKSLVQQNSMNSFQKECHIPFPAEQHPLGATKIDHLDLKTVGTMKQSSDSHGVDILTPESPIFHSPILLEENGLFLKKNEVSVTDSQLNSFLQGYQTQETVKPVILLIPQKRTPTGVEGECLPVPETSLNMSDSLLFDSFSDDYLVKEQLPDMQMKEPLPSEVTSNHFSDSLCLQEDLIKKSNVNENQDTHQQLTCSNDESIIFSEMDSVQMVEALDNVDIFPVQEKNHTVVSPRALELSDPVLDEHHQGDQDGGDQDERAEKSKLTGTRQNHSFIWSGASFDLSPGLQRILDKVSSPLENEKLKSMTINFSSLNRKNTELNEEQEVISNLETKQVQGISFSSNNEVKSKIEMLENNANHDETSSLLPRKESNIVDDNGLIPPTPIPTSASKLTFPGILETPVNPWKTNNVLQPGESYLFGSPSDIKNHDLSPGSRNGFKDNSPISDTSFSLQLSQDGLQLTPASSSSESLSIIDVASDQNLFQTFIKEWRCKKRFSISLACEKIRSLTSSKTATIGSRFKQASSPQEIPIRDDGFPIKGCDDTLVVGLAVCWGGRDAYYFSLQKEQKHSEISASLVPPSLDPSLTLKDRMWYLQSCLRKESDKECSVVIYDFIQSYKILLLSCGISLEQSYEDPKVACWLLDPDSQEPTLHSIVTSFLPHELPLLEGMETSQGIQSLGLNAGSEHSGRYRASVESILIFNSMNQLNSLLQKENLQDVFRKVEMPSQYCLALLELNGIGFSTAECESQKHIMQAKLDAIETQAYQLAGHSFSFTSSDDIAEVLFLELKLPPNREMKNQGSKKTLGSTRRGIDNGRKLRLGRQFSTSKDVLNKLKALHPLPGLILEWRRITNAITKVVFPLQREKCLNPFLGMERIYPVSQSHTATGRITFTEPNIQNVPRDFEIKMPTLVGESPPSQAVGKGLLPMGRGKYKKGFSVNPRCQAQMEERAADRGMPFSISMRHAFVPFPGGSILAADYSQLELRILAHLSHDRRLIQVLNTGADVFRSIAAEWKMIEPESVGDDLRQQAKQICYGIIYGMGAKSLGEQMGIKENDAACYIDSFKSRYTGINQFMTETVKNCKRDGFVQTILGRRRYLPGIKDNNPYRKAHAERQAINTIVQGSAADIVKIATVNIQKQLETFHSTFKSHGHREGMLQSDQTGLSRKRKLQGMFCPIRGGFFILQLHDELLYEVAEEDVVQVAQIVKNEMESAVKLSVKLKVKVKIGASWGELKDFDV
# Observed: enzyme activity
# Concentration: concentration not given
# Notes: without ssDNA
SMILES,remaining activity [%]
O=c1[nH]c2cc(Cl)ccc2c(O)c1-c1cccc(Oc2ccccc2)c1,66.1
CCOc1ccc2nc3cc(N)ccc3c(N)c2c1,99.1
CSc1ccc(/C=C/c2nc3ccccc3n2S(=O)(=O)c2ccc(Br)cc2)cc1,68.4
CCCCCCCCCCCCCCCC(=O)OC[C@H](O)[C@H]1OC(=O)C(O)=C1O,43.1
Cc1c(Cl)cccc1NC(=O)CSc1ncc(S(=O)(=O)c2ccc(C(C)C)cc2)c(=O)[nH]1,91.3
Cc1nc(N=Nc2cc(S(=O)(=O)O)c3cc([N+](=O)[O-])cc(S(=O)(=O)O)c3c2)c(COP(=O)(O)O)c(C=O)c1O,154
CC(C)(C)c1ccc(S(=O)(=O)c2cnc(SCC(=O)Nc3ccc4c(c3)OCCO4)[nH]c2=O)cc1,74.4
O=C(Nc1ccccc1C(=O)O)c1cccc(S(=O)(=O)N2CCCC2)c1,54.6
C/C(O)=C(\C#N)C(=O)Nc1ccc(C(F)(F)F)cc1,34.5
Cc1ccc(C2C=C(c3ccccc3)N=C3N=C(NS(C)(=O)=O)NN32)cc1 (centres unmarked),89.4
Cc1ccc(-c2n[nH]c3c2C(c2cccc(O)c2)N(c2ccc(C(=O)O)cc2)C3=O)cc1 (centres unmarked),58.1
CC1(C)Cc2c(-c3ccccc3)c(-c3ccc(Cl)cc3)c(CC(=O)O)n2C1,50.4
COc1cccc2c1C(=O)c1c(O)c3c(c(O)c1C2=O)C[C@@](O)(C(=O)CO)C[C@@H]3O[C@H]1C[C@H](N)[C@@H](O)[C@H](C)O1,97.9
Cc1noc(C)c1S(=O)(=O)Nc1ccc(C(=O)Nc2ccc(Br)cc2)cc1,78
CCCCCCCC/C=C\CCCCCCCC(=O)O,98.6
CCC(C)(Oc1ccc(C2(c3ccc(OC(C)(CC)C(=O)O)cc3)CCCCC2)cc1)C(=O)O (centres unmarked),128
O=C(O)C1=CC(=C(c2ccc(O)c(C(=O)O)c2)c2ccc(O)c(C(=O)O)c2)C=CC1=O,8.89
COc1ccc(C(=O)Nc2noc3ccccc23)cc1,63.8
COc1cccc(C2C3=C(NN/C3=C3/C=CC=CC3=O)C(=O)N2CCc2ccc(OC)c(OC)c2)c1 (centres unmarked),73.9
O=C(O)c1cccnc1Nc1cccc(C(F)(F)F)c1,37
O=C(CSc1ncc(S(=O)(=O)c2ccc(Br)cc2)c(=O)[nH]1)NCc1ccc(Cl)cc1,68.2

# Series 3
# SMILES: CC(C)n1cnc(-c2ccc(F)cc2)c1-c1ncc(C(=O)Nc2ccc(N3CCN(C)CC3)cc2)[nH]1
assay,system,setting,patients with TEAE [%]
phase 2a trial,idiopathic pulmonary fibrosis patients,"oral, dose not given, CK-MB increased, grade 3, all arms",0
phase 2a trial,patients with idiopathic pulmonary fibrosis,"30 mg once daily, eye swelling, grade 3",0
phase 2a trial,idiopathic pulmonary fibrosis patients,"oral, 60 mg once daily, LDL increased, grade 5",0
phase 2a trial,patients with idiopathic pulmonary fibrosis,"30 mg once daily, free thyroxine decreased, grade 1",0
phase 2a trial,patients with idiopathic pulmonary fibrosis,"30 mg once daily, free thyroxine decreased, grade 4",0
phase 2a trial,patients with idiopathic pulmonary fibrosis,"dose not given, renal and urinary disorders SOC, grade 3, all arms",0
phase 2a trial,patients with idiopathic pulmonary fibrosis,"30 mg once daily, atopic dermatitis, grade 5",0
item: prostatic calcification,idiopathic pulmonary fibrosis patients,60 mg once daily,0
phase 2a trial,idiopathic pulmonary fibrosis patients,"oral, 60 mg once daily, urine red cells, grade 5",0
item: glutamate dehydrogenase increased,idiopathic pulmonary fibrosis patients,30 mg once daily,0
phase 2a trial,idiopathic pulmonary fibrosis patients,"oral, 60 mg once daily, blood/lymphatic disorders, grade 5",0
phase 2a trial,patients with idiopathic pulmonary fibrosis,"60 mg once daily, renal and urinary disorders SOC, grade 4",0
phase 2a trial,patients with idiopathic pulmonary fibrosis,"30 mg once daily, endocrine disorders SOC, grade 4",0
phase 2a trial,patients with idiopathic pulmonary fibrosis,"30 mg once daily, atopic dermatitis, grade 4",0
phase 2a trial,patients with idiopathic pulmonary fibrosis,"60 mg once daily, free thyroxine decreased, grade 1",0
phase 2a trial,patients with idiopathic pulmonary fibrosis,"dose not given, renal and urinary disorders SOC, grade 5, all arms",0
item: endocrine disorders,idiopathic pulmonary fibrosis patients,30 mg once daily,0
phase 2a trial,idiopathic pulmonary fibrosis patients,"oral, 30 mg once daily, urine red cells, grade 2",0
phase 2a trial,idiopathic pulmonary fibrosis patients,"oral, 60 mg once daily, GLDH increased, grade 2",0

# Series 4
# Structure (SMILES): N#CC(=C(N)Sc1ccc(N)cc1)c1ccccc1C(F)(F)F
# Observed: enzyme activity
# Mode: inhibitor
# Concentration: 0.5 µM
# Baseline: control
target,remaining activity
"Serine/threonine-protein kinase PLK2 (PLK2, Homo sapiens, UniProt Q9NYY3)",98.1%
"Casein kinase I isoform alpha (CSNK1A1, Homo sapiens, UniProt P48729)",82.9%
"RAC-gamma serine/threonine-protein kinase (AKT3, Homo sapiens, UniProt Q9Y243)",96.2%
"Mast/stem cell growth factor receptor Kit (KIT, Homo sapiens, UniProt P10721)",91.8%
"Mitogen-activated protein kinase 13 (MAPK13, Homo sapiens, UniProt O15264)",104%
"Serine/threonine-protein kinase Nek4 (NEK4, Homo sapiens, UniProt P51957)",95.9%
"Ephrin type-A receptor 5 (EPHA5, Homo sapiens, UniProt P54756)",116%
"Leucine-rich repeat serine/threonine-protein kinase 2 (LRRK2, Homo sapiens, UniProt Q5S007)",100%
"Cyclin-dependent kinase 9, with cyclin T1 (CDK9, Homo sapiens, UniProt P50750)",97.7%
"Interleukin-1 receptor-associated kinase 4 (IRAK4, Homo sapiens, UniProt Q9NWZ3)",89.8%
"Dual specificity mitogen-activated protein kinase kinase 6 (MAP2K6, Homo sapiens, UniProt P52564)",97.5%
"Serine/threonine-protein kinase 38 (STK38, Homo sapiens, UniProt Q15208)",93.1%
"cGMP-dependent protein kinase 1 (PRKG1, Homo sapiens, UniProt Q13976)",98.8%
"Mitogen-activated protein kinase 12 (MAPK12, Homo sapiens, UniProt P53778)",97.4%
"Protein kinase C delta type (PRKCD, Homo sapiens, UniProt Q05655)",97.5%
"Mitogen-activated protein kinase kinase kinase kinase 2 (MAP4K2, Homo sapiens, UniProt Q12851)",85.7%
"Protein kinase C iota type (PRKCI, Homo sapiens, UniProt P41743)",102%
"MAP kinase-interacting serine/threonine-protein kinase 2 (MKNK2, Homo sapiens, UniProt Q9HBH9)",109%
"Casein kinase II subunit alpha (CSNK2A1, Homo sapiens, UniProt P68400)",97.9%
"Tyrosine-protein kinase BTK (BTK, Homo sapiens, UniProt Q06187)",93.5%
"Tyrosine-protein kinase Lyn (LYN, Homo sapiens, UniProt P07948)",107%
"Serine/threonine-protein kinase WNK2 (WNK2, Homo sapiens, UniProt Q9Y3S1)",109%
"Serine/threonine-protein kinase Chk1 (CHEK1, Homo sapiens, UniProt O14757)",97.5%
"Mitogen-activated protein kinase kinase kinase 10 (MAP3K10, Homo sapiens, UniProt Q02779)",88.1%

# For quick reference, copied from above (series 3):
assay,system,setting,patients with TEAE [%]
phase 2a trial,idiopathic pulmonary fibrosis patients,"oral, 60 mg once daily, LDL increased, grade 5",0
phase 2a trial,patients with idiopathic pulmonary fibrosis,"30 mg once daily, free thyroxine decreased, grade 1",0
phase 2a trial,patients with idiopathic pulmonary fibrosis,"30 mg once daily, free thyroxine decreased, grade 4",0
phase 2a trial,patients with idiopathic pulmonary fibrosis,"dose not given, renal and urinary disorders SOC, grade 3, all arms",0
phase 2a trial,patients with idiopathic pulmonary fibrosis,"30 mg once daily, atopic dermatitis, grade 5",0
item: prostatic calcification,idiopathic pulmonary fibrosis patients,60 mg once daily,0
phase 2a trial,idiopathic pulmonary fibrosis patients,"oral, 60 mg once daily, urine red cells, grade 5",0
item: glutamate dehydrogenase increased,idiopathic pulmonary fibrosis patients,30 mg once daily,0
phase 2a trial,idiopathic pulmonary fibrosis patients,"oral, 60 mg once daily, blood/lymphatic disorders, grade 5",0
phase 2a trial,patients with idiopathic pulmonary fibrosis,"60 mg once daily, renal and urinary disorders SOC, grade 4",0
phase 2a trial,patients with idiopathic pulmonary fibrosis,"30 mg once daily, endocrine disorders SOC, grade 4",0
phase 2a trial,patients with idiopathic pulmonary fibrosis,"30 mg once daily, atopic dermatitis, grade 4",0
phase 2a trial,patients with idiopathic pulmonary fibrosis,"60 mg once daily, free thyroxine decreased, grade 1",0
phase 2a trial,patients with idiopathic pulmonary fibrosis,"dose not given, renal and urinary disorders SOC, grade 5, all arms",0
item: endocrine disorders,idiopathic pulmonary fibrosis patients,30 mg once daily,0
